Results gathered from unrelated publications.
Compare with care: the assays were run in different laboratories.
MAPK3 with MyD88: Mitogen-activated protein kinase 3, with MyD88 (MAPK3, Homo sapiens, UniProt P27361)
MAPK3: Mitogen-activated protein kinase 3 (MAPK3, Homo sapiens, UniProt P27361)

COc1ccc(NC(=O)c2ccc3[nH]c(-c4ccc(N(C)C)cc4)nc3c2)cn1 has an inhibition of 84% (MAPK3 with MyD88; ERK1-MYD88 interaction, HTRF; concentration not given).
For Cc1cccc(-c2ccc3nc(NC(=O)C4CCCO4)nn3c2)c1 (stereo not shown), the remaining activity was 97% (MAPK3; enzyme activity, Dundee kinase panel; 10 µM).
C=CC(=O)N1CCCC(n2c(=O)c3ncccc3n(Cc3ccc(Oc4ccccc4)cc3)c2=O)C1 (stereo not shown) gave a remaining binding of 87% (MAPK3; cell-free assay, competition with immobilised ligand; 1 µM).
C=CC(=O)Nc1cc(-c2nn(C3CCN(CCNC(=O)[C@H](C)CCC45CC6CC(CC(C6)C4)C5)CC3)c3ncnc(N)c23)ccc1Oc1ccccc1 has an inhibition of 2.1% (MAPK3; inhibitor, KiNativ profiling; biochemical; 2 µM).
With C=CC(=O)Nc1cccc(-c2cnc3[nH]cc(C(=O)NC(C)(C)C)c3n2)c1 the inhibition was 2% (MAPK3; enzyme activity, inhibitor; 0.1 µM).
CC(C)=CC1OC(C)(C)C2C=C3C(=O)C(Cl)=CC(O)C3C3C(O)C4OC4C(=O)C132 (stereo not shown) gave a remaining binding of 90% (MAPK3; cell-free assay, competition with immobilised ligand; 10 µM).
CCN1CCN(Cc2ccc(C(=O)Nc3ccc(C)c(NCc4cnc5[nH]ccc5c4OC)c3)cc2C(F)(F)F)CC1 gave a remaining binding of 100% (MAPK3; binding, competition with immobilised ligand; 1 µM).
With Nc1ncc2c(n1)-c1c([nH]c3ccc(C4=CCOCC4)cc13)CCC2 the remaining binding was 100% (MAPK3; binding, competition with immobilised ligand; 1 µM).
With CNC(=O)C1CCN(c2cc(C)c(F)cc2NC(=O)c2ccc(-c3cc(O)ccc3C)c(C)c2)CC1 the remaining binding was 98% (MAPK3; binding, competition with immobilised ligand; 1 µM).
The remaining binding of CN1CCN(Cc2ccc(NC(=O)c3cccc(C#Cc4cnc(N)c5ncccc45)c3)cc2C(F)(F)F)CC1 is reported as 100% (MAPK3; cell-free assay, competition with immobilised ligand; 0.5 µM).
For CNc1ccc(-c2nc3cc(C(=O)Nc4ccc(OC)nc4)ccc3[nH]2)cc1, the inhibition was 26.7% (MAPK3 with MyD88; ERK1-MYD88 interaction, HTRF; concentration not given).
The inhibition of NC(=O)C[C@H]1CCc2sc3ncnc(O[C@H]4CC[C@H](N5CCOCC5)CC4)c3c21 is reported as 4% (MAPK3; enzyme activity, inhibitor; 10 µM).
With Nc1nc(Nc2ccccc2)sc1C(=O)c1ccccc1 the remaining activity was 59% (MAPK3; enzyme activity, inhibitor; 10 µM).
The inhibition of C=CC(=O)N1Cc2nc(-c3cc(-c4cc(Cl)cnc4Cl)c(F)cc3F)n(-c3ccncn3)c2C1 is reported as 3.2% (MAPK3; cell-free assay, inhibitor; 1 µM).
Cc1ccc(C)c(-c2ccc3nc(NC(=O)C4CCCCC4)nn3c2)c1 has a remaining activity of 92% (MAPK3; enzyme activity, Dundee kinase panel; 10 µM).
For Cc1ccc(-c2c(/C=C(\C#N)C(=O)NC(C)C)n(CCCO)c3ncnc(N)c23)cc1, the remaining binding was 100% (MAPK3; cell-free assay, competition with immobilised ligand; 1 µM).
The remaining binding of COc1cc(Nc2nccc(-c3cnn4nc(OC)ccc34)n2)cc(C(F)(F)F)c1 is reported as 99% (MAPK3; binding, competition with immobilised ligand; 1 µM).
For Cc1cccc(O[C@H]2CCC[C@@H](C(C)CNCc3ccncc3)C2)c1 (relative stereo), the inhibition was -9% (MAPK3; enzyme activity, inhibitor; 10 µM).
For COc1c(Cl)cccc1Nc1c(-c2ccncc2C#C[C@@]2(C)CCCN2C(=O)/C=C/CN(C)C)[nH]c2c1C(=O)NCC2, the remaining binding was 100% (MAPK3; binding, competition with immobilised ligand; 3 µM).

For quick reference, copied from above:
With Nc1ncc2c(n1)-c1c([nH]c3ccc(C4=CCOCC4)cc13)CCC2 the remaining binding was 100% (MAPK3; binding, competition with immobilised ligand; 1 µM).
CCN1CCN(Cc2ccc(C(=O)Nc3ccc(C)c(NCc4cnc5[nH]ccc5c4OC)c3)cc2C(F)(F)F)CC1 gave a remaining binding of 100% (MAPK3; binding, competition with immobilised ligand; 1 µM).
For CNc1ccc(-c2nc3cc(C(=O)Nc4ccc(OC)nc4)ccc3[nH]2)cc1, the inhibition was 26.7% (MAPK3 with MyD88; ERK1-MYD88 interaction, HTRF; concentration not given).
